Measurements from different studies.
Protocols differ between the studies behind these lines. ± gives the spread as reported.

For COc1cc(CNC(=O)C[C@H](C)CCC=C(C)C)ccc1OCc1cn(-c2ccccc2)nn1, the growth percent was 101% (UACC-257 melanoma cells; SRB; 10 µM, 48 h).
With N=C(N)NCCC[C@@H]1NC(=O)[C@H](CCCCNC(=O)CNC(=O)CNC(=O)CNC(=O)CC[C@H](NC(=O)CNC(=O)CNC(=O)CNC(=O)CN2CCN(CC(=O)O)CCN(CC(=O)O)CCN(CC(=O)O)CC2)C(=O)NCC(=O)NCC(=O)NCC(=O)NCCCC[C@@H]2NC(=O)[C@@H](Cc3ccccc3)NC(=O)[C@H](CC(=O)O)NC(=O)CNC(=O)[C@H](CCCNC(=N)N)NC2=O)NC(=O)[C@@H](Cc2ccccc2)NC(=O)[C@H](CC(=O)O)NC(=O)CNC1=O [indium-111 labelled] the tissue uptake was 0.32 ± 0.06 %ID/g (female athymic nu/nu mice, lungs; intravenous, 72 h).
CC(C)C[C@H](NC(=O)CN1CCN(CC(=O)O)CCN(CC(=O)O)CC1)C(=O)N[C@@H](CC(C)C)C(=O)N[C@@H](CC(C)C)C(=O)N[C@@H](CC(C)C)C(=O)N[C@@H](CCCNC(=N)N)C(=O)N[C@H](C(=O)N[C@@H](CCCCN)C(=O)N[C@@H](CCCNC(=N)N)C(N)=O)C(C)C [copper-64 labelled] gave a tissue uptake of 3.7 ± 0.5 %ID/g (CD1 mouse, male, lungs; intravenous, 15 min).
N=C(N)NCCC[C@@H]1NC(=O)[C@H](CCCCNC(=O)CNC(=O)CNC(=O)CNC(=O)CC[C@H](NC(=O)CNC(=O)CNC(=O)CNC(=O)CC[C@H](NC(=O)CN2CCN(CC(=O)O)CCN(CC(=O)O)CCN(CC(=O)O)CC2)C(=O)NCC(=O)NCC(=O)NCC(=O)N[C@@H](CCC(=O)NCC(=O)NCC(=O)NCC(=O)NCCCC[C@@H]2NC(=O)[C@@H](Cc3ccccc3)NC(=O)[C@H](CC(=O)O)NC(=O)CNC(=O)[C@H](CCCNC(=N)N)NC2=O)C(=O)NCC(=O)NCC(=O)NCC(=O)NCCCC[C@@H]2NC(=O)[C@@H](Cc3ccccc3)NC(=O)[C@H](CC(=O)O)NC(=O)CNC(=O)[C@H](CCCNC(=N)N)NC2=O)C(=O)NCC(=O)NCC(=O)NCC(=O)NCCCC[C@@H]2NC(=O)[C@@H](Cc3ccccc3)NC(=O)[C@H](CC(=O)O)NC(=O)CNC(=O)[C@H](CCCNC(=N)N)NC2=O)NC(=O)[C@@H](Cc2ccccc2)NC(=O)[C@H](CC(=O)O)NC(=O)CNC1=O [indium-111 labelled] gave a tissue uptake of 0.45 ± 0.06 %ID/g (female athymic nu/nu mice, muscle; intravenous, 111 kBq, 72 h).
CCCC[C@H](NC(=O)CNC(=O)CNC(=O)CN1CCN(CC(=O)O)CCN(CC(=O)O)CCN(CC(=O)O)CC1)C(=O)N[C@H]1CC(=O)NCCCC[C@@H](C(N)=O)NC(=O)[C@H](Cc2c[nH]c3ccccc23)NC(=O)[C@H](CCCNC(=N)N)NC(=O)[C@@H](Cc2ccccc2)NC(=O)[C@H](Cc2c[nH]cn2)NC1=O [lutetium-177 labelled] gave a tissue uptake of 1.04 ± 0.51 %ID (C57 mouse, female, intestines; intravenous, 0.037 MBq, 4 h).
The tissue uptake of Cc1cc(O)cc(C)c1C[C@H](NC(=O)[C@@H]1CCCN1C(=O)[C@H](CCCNC(=N)N)NC(=O)[C@H](CCCNC(=N)N)N(C)C(=O)[C@@H]1CCCN1C(=O)[C@H](CCCCN)NC(=O)[C@@H](CC(C)C)NC(=O)[C@@H](CC(C)C)NC(=O)[C@@H](CC(C)C)NC(=O)[C@@H](CC(C)C)NC(=O)CN1CCN(CC(=O)O)CCN(CC(=O)O)CCN(CC(=O)O)CC1)C(=O)N[C@H](C(=O)N[C@@H](CC(C)C)C(=O)O)C(C)(C)C [lutetium-177 labelled] is reported as 0.03 ± 0.03 %ID/g (CF-1 mouse, blood; iv, 370 kBq, 4 h).
With COc1cc(CNC(=O)C[C@H](C)CCC=C(C)C)ccc1OCc1cn(-c2ccc(Cl)cc2Cl)nn1 the growth percent was 49.7% (OVCAR-4 ovarian cancer cells; SRB; 10 µM, 48 h).
With CCCC[C@H](NC(=O)COCCOCCNC(=O)CN1CCN(CC(=O)O)CCN(CC(=O)O)CC1)C(=O)N[C@H]1CC(=O)NCCCC[C@@H](C(N)=O)NC(=O)[C@H](Cc2c[nH]c3ccccc23)NC(=O)[C@H](CCCNC(=N)N)NC(=O)[C@@H](Cc2ccccc2)NC(=O)[C@H](Cc2c[nH]cn2)NC1=O [copper-64 labelled] the tissue uptake was 0.03 ± 0.05 %ID/g (C57 mice, muscle; intravenous, 0.37 MBq, 4 h).
With CC(C)C[C@H](NC(=O)[C@H](Cc1ccc(O)cc1)NC(=O)[C@@H](CCCNC(=N)N)NC(=O)[C@@H](CO)NC(=O)[C@H](Cc1ccccc1)NC(=O)[C@H](CC1CCCCC1)NC(=O)[C@H](CC(=O)O)NC(=O)CN1CCCN2CCN(CCCN(CC(=O)O)CC2)CC1)C(=O)N[C@@H](Cc1c[nH]c2ccccc12)C(=O)N[C@@H](CO)C(=O)O [copper-64 labelled] the tissue uptake was 3.6 ± 1 %ID/g (female NMRI nude mice, tumor; 1 h p.i.).
N=C(N)NCCC[C@@H]1NC(=O)[C@H](CCCCNC(=O)CC[C@H](NC(=O)CC[C@H](NC(=O)CN2CCN(CC(=O)O)CCN(CC(=O)O)CCN(CC(=O)O)CC2)C(=O)N[C@@H](CCC(=O)NCCCC[C@@H]2NC(=O)[C@@H](Cc3ccccc3)NC(=O)[C@H](CC(=O)O)NC(=O)CNC(=O)[C@H](CCCNC(=N)N)NC2=O)C(=O)NCCCC[C@@H]2NC(=O)[C@@H](Cc3ccccc3)NC(=O)[C@H](CC(=O)O)NC(=O)CNC(=O)[C@H](CCCNC(=N)N)NC2=O)C(=O)NCCCC[C@@H]2NC(=O)[C@@H](Cc3ccccc3)NC(=O)[C@H](CC(=O)O)NC(=O)CNC(=O)[C@H](CCCNC(=N)N)NC2=O)NC(=O)[C@@H](Cc2ccccc2)NC(=O)[C@H](CC(=O)O)NC(=O)CNC1=O [indium-111 labelled] has a tissue uptake of 0.07 ± 0.02 %ID/g (female athymic nu/nu mice, brain; intravenous, 24 h).
With CCCC[C@H](NC(=O)CCCCCCCNC(=O)CN1CCN(CC(=O)O)CCN(CC(=O)O)CC1)C(=O)N[C@H]1CC(=O)NCCCC[C@@H](C(N)=O)NC(=O)[C@H](Cc2c[nH]c3ccccc23)NC(=O)[C@H](CCCNC(=N)N)NC(=O)[C@@H](Cc2ccccc2)NC(=O)[C@H](Cc2c[nH]cn2)NC1=O [copper-64 labelled] the tissue uptake was 1.49 ± 0.33 %ID/g (C57 mice, heart; intravenous, 0.37 MBq, 0.5 h).
CSCC[C@H](NC(=O)[C@H](CC(C)C)NC(=O)[C@H](Cc1c[nH]cn1)NC(=O)CNC(=O)[C@@H](NC(=O)[C@H](C)NC(=O)[C@H](Cc1c[nH]c2ccccc12)NC(=O)[C@H](CCC(N)=O)NC(=O)CCOCCOCCOCCOCCNC(=O)CN1CCN(CC(=O)O)CCN(CC(=O)O)CCN(CC(=O)O)CC1)C(C)C)C(N)=O [indium-111 labelled] has a tissue uptake of 1.2 ± 0.2 %ID/g (Swiss nu/nu mouse, male, PC-3 tumour xenograft, tumour; intravenous, 10 pmol, 24 h).
The tissue uptake of [64Cu+2].c1cnc(CNCc2ccc(CN3CCCN4CCNCCCN(CC4)CC3)cc2)nc1 is reported as 89.2 ± 4.29 %ID/g (CXCR4; NOD/SCID mouse, U87 and U87-stb-CXCR4 xenografts, liver; iv, 90 min, ex vivo).
